{"data": "Measurements from different studies", "note": "Several values in a cell are separate wells, animals, samples, runs or records. ± marks the error that the study gave."}
{"Structure (SMILES)": "COc1cc2c(NC3CCN(C(C)C)CC3)cc(N3CCOCC3)nc2cc1OCCCN1CCCC1", "test": "TMT proteomics, refers to: THY1", "system": "5xFAD mice, hippocampus", "setting": "dose not given", "scale": "reference: wild-type mice", "measurement": "log2 fold change", "result": -0.0568}
{"Structure (SMILES)": "COc1ccc(NC(=O)c2ccc3[nH]c(-c4ccc(N(C)C)cc4)nc3c2)cn1", "system": "CT26, BALB/c nude mice, subcutaneous graft", "setting": "dose not given, day 11", "measurement": "tumour volume", "result": "351 mm3 and 1090 mm3 and 1800 mm3 and 1270 mm3"}
{"Structure (SMILES)": "COc1cc(N2CCN(C(=O)C3CCCN3)CC2)ccc1Nc1ncc(Cl)c(Nc2ccccc2P(C)(C)=O)n1 (centres unmarked)", "system": "nude mice, NCI-H3122 xenograft", "setting": "oral, 25 mg/kg every two days, day 11", "measurement": "tumour volume", "result": "324 mm3 and 147 mm3 and 33.7 mm3 and 143 mm3 and 231 mm3"}
{"Structure (SMILES)": "COC1OC(C)C(OS(=O)(=O)O)C(OC2OC(C)C(OS(=O)(=O)O)C(OC3OC(C)C(OS(=O)(=O)O)C(OC4OC(C)C(OS(=O)(=O)O)C(OC5OC(C)C(OS(=O)(=O)O)C(OC6OC(C)C(OS(=O)(=O)O)C(OC7OC(C)C(OS(=O)(=O)O)C(OS(=O)(=O)O)C7OS(=O)(=O)O)C6OS(=O)(=O)O)C5OS(=O)(=O)O)C4OS(=O)(=O)O)C3OS(=O)(=O)O)C2OS(=O)(=O)O)C1OS(=O)(=O)O (centres unmarked)", "system": "human plasma", "setting": "128 µg/mL", "measurement": "prothrombin time", "result": "15.2 ± 0.2 s"}
{"Structure (SMILES)": "O=C(NS(=O)(=O)c1cccs1)c1cc2ccccc2n1Cc1ccc(Br)c2ccccc12", "system": "mouse, acute hyperuricemia model", "setting": "dose not given", "measurement": "serum uric acid", "result": "296 µM and 214 µM and 352 µM and 178 µM"}
{"Structure (SMILES)": "CC(C)(C)NCC(SS(=O)(=O)O)c1ccccc1 (centres unmarked)", "system": "Schistosoma mansoni-infected mice", "setting": "600 mg/kg single, day 7, perfusion day 44", "measurement": "liver weight", "result": "2.11 g"}
{"Structure (SMILES)": "CNCc1ccc(-c2cc(=O)c3ccc4[nH]c(C(F)(F)F)nc4c3o2)cc1", "test": "ELISA", "system": "3xTg mice, brain lysate", "setting": "dose not given, 3 months", "measurement": "Aβ42 level", "result": "decreased"}
{"Structure (SMILES)": "CC(=O)N1c2ccc(-c3ccc(CNC(=O)c4cn5cc(-c6cnc(N)nc6)nc(N6CCOCC6)c5n4)cc3)cc2CC[C@@H]1C", "system": "mice transplanted Eµ-Myc lymphoma", "setting": "35 mg/kg, 15 d dosing", "measurement": "sustained complete lymphoma clearance", "result": "10%"}
{"Structure (SMILES)": "COC1OC(C)C(OS(=O)(=O)O)C(OC2OC(C)C(OS(=O)(=O)O)C(OC3OC(C)C(OS(=O)(=O)O)C(OC4OC(C)C(OS(=O)(=O)O)C(OC5OC(C)C(OS(=O)(=O)O)C(OC6OC(C)C(OS(=O)(=O)O)C(OC7OC(C)C(OS(=O)(=O)O)C(OC8OC(C)C(OS(=O)(=O)O)C(OC9OC(C)C(OS(=O)(=O)O)C(OC%10OC(C)C(OS(=O)(=O)O)C(OS(=O)(=O)O)C%10O)C9O)C8O)C7O)C6O)C5O)C4O)C3O)C2O)C1O (centres unmarked)", "system": "human plasma", "setting": "128 µg/mL", "scale": "reference: control", "measurement": "prothrombin time prolongation", "result": "0.98 fold"}
{"Structure (SMILES)": "CCCCCCC(CSS(=O)(=O)O)NCC(C)C (centres unmarked)", "system": "Swiss Webster mice, Schistosoma mansoni infected", "setting": "100 mg/kg", "scale": "reference: vehicle control", "measurement": "liver weight decrease", "result": "3.54%"}
{"Structure (SMILES)": "COC1OC(C)C(OS(=O)(=O)O)C(OC2OC(C)C(OS(=O)(=O)O)C(OS(=O)(=O)O)C2O)C1O (centres unmarked)", "system": "human plasma", "setting": "128 µg/mL", "measurement": "prothrombin time", "result": "14.4 ± 0.4 s"}
{"Structure (SMILES)": "COc1cc(C2NCCc3cc(O)c(O)cc32)cc(OC)c1OC (centres unmarked)", "test": "ABTS scavenging", "setting": "10 min, dark", "measurement": "IC50", "result": "13.6 µM"}
{"Structure (SMILES)": "Cc1[nH]nc2c1N=C(c1ccccc1Cl)c1cnc(N3CCOCC3)cc1N2", "system": "mouse sample E TNBC PDX", "setting": "oral, 15 mg/kg, 120 h, 5 days per week", "measurement": "tumour growth inhibition", "result": "96%"}
{"Structure (SMILES)": "COC1OC(C)C(O)C(OC2OC(C)C(O)C(OC3OC(C)C(O)C(OC4OC(C)C(O)C(OC5OC(C)C(O)C(OC6OC(C)C(O)C(OC7OC(C)C(O)C(OC8OC(C)C(O)C(OC9OC(C)C(O)C(OC%10OC(C)C(O)C(OS(=O)(=O)O)C%10OS(=O)(=O)O)C9OS(=O)(=O)O)C8OS(=O)(=O)O)C7OS(=O)(=O)O)C6OS(=O)(=O)O)C5OS(=O)(=O)O)C4OS(=O)(=O)O)C3OS(=O)(=O)O)C2OS(=O)(=O)O)C1OS(=O)(=O)O (centres unmarked)", "system": "human plasma", "setting": "128 µg/mL", "scale": "reference: control", "measurement": "prothrombin time prolongation", "result": "0.98 fold"}
{"Structure (SMILES)": "CC(C)n1nc(-c2cc3cc(O)ccc3[nH]2)c2c(N)ncnc21", "test": "AlphaScreen signal, AlphaScreen counter screen", "system": "His6 peptide without bromodomain", "setting": "50 µM, assay interference check", "measurement": "inhibition", "result": "29.8%"}
{"Structure (SMILES)": "CN1CCC[C@]1(C)/C=C/S(=O)(=O)NC(=O)Nc1c2c(cc3c1CCC3)CCC2", "system": "human, whole blood ex vivo", "setting": "50 mg twice daily, day 14, 12 h, multiple ascending dose, added: LPS and ATP", "measurement": "IL-18 inhibition", "result": "89.7%"}
{"Structure (SMILES)": "COC1OC(C)C(OC2OC(C)C(O)C(OC3OC(C)C(OC4OC(C)C(O)C(OC5OC(C)C(OC6OC(C)C(O)C(OC7OC(C)C(OC8OC(C)C(O)C(OC9OC(C)C(OC%10OC(C)C(O)C(OS(=O)(=O)O)C%10OS(=O)(=O)O)C(OS(=O)(=O)O)C9OS(=O)(=O)O)C8OS(=O)(=O)O)C(OS(=O)(=O)O)C7OS(=O)(=O)O)C6OS(=O)(=O)O)C(OS(=O)(=O)O)C5OS(=O)(=O)O)C4OS(=O)(=O)O)C(OS(=O)(=O)O)C3OS(=O)(=O)O)C2OS(=O)(=O)O)C(OS(=O)(=O)O)C1OS(=O)(=O)O (centres unmarked)", "system": "human plasma", "setting": "128 µg/mL", "measurement": "prothrombin time", "result": "14.8 ± 0.1 s"}
{"Structure (SMILES)": "Nc1nc2cc(CC[C@H]3C[C@@H](n4ccc5c(N)ncnc54)[C@H](O)[C@@H]3O)ccc2cc1Br", "system": "NCI-H1048 xenograft, mouse", "setting": "1.0 mg/kg/day, day 28", "measurement": "tumour volume", "result": "2030 ± 376 mm3"}
{"Structure (SMILES)": "CCCCCc1ccc(S(=O)(=O)N2CC2C(=O)OC)cc1 (centres unmarked)", "system": "mouse, Lewis lung carcinoma", "setting": "intraperitoneal, 15 mg/kg, 16 doses, day 12", "measurement": "tumour growth inhibition", "result": "62%"}
{"Structure (SMILES)": "S=C(S)OC1CC2CC1C1CCCC21 (centres unmarked)", "test": "LC-MS/MS, refers to: extracellular Met-enkephalin", "system": "mouse striatal brain slices", "setting": "500 µM, 20 min, added: 50 mM KCl", "measurement": "Met-enkephalin concentration", "result": "4420 pM and 4170 pM and 3560 pM and 8510 pM and 3450 pM and 972 pM and 2250 pM and 90 pM"}
{"Structure (SMILES)": "COC1OC(C)C(OS(=O)(=O)O)C(OC2OC(C)C(OS(=O)(=O)O)C(OC3OC(C)C(OS(=O)(=O)O)C(OC4OC(C)C(OS(=O)(=O)O)C(OS(=O)(=O)O)C4O)C3O)C2O)C1O (centres unmarked)", "system": "human plasma", "setting": "128 µg/mL", "scale": "reference: control", "measurement": "prothrombin time prolongation", "result": "1 fold"}
{"Structure (SMILES)": "CC(=O)[O-].O.O.O.O.[Ni+2].[O-]c1ccc(Br)cc1C=NCCN1CCOCC1", "test": "DPPH radical scavenging", "setting": "160 µM", "measurement": "inhibition", "result": "38.3%"}
{"Structure (SMILES)": "COC1OC(C)C(OC2OC(C)C(OS(=O)(=O)O)C(OC3OC(C)C(OC4OC(C)C(OS(=O)(=O)O)C(OC5OC(C)C(OS(=O)(=O)O)C(OS(=O)(=O)O)C5OS(=O)(=O)O)C4OS(=O)(=O)O)C(OS(=O)(=O)O)C3OS(=O)(=O)O)C2OS(=O)(=O)O)C(OS(=O)(=O)O)C1OS(=O)(=O)O (centres unmarked)", "system": "human plasma", "setting": "128 µg/mL", "scale": "reference: control", "measurement": "prothrombin time prolongation", "result": "1.05 fold"}
{"Structure (SMILES)": "CC(C)C[C@H](NC(=O)[C@H](CC(=O)O)NC(=O)CNC(=O)[C@@H](N)CCCNC(=N)N)C(=O)N[C@@H](C)C(=O)N[C@H](C(=O)N[C@@H](CC(C)C)C(=O)N[C@@H](CCCNC(=N)N)C(=O)N[C@@H](CCC(N)=O)C(=O)N[C@@H](CC(C)C)C(=O)N[C@@H](C)C(=O)N[C@@H](CCC(N)=O)C(=O)N[C@@H](CCC(=O)O)C(=O)N[C@@H](CC(=O)O)C(=O)NCC(=O)N[C@H](C(=O)N[C@H](C(=O)NCC(=O)N[C@H](C(=O)N[C@@H](CCCNC(=N)N)C(=O)NCCOCCOCCOCCOCCOCCOCCOCCOCCOCCOCCOCCOCCC(=O)N[C@@H](CS)C(N)=O)C(C)C)C(C)C)C(C)C)[C@@H](C)O", "test": "ex vivo NIR imaging", "system": "NOD/SCID mice, xenograft, H2009 xenograft", "setting": "intravenous, 30 µg, 24 h", "scale": "reference: lung", "measurement": "fluorescence signal ratio", "result": "193 and 24 and 105"}
{"Structure (SMILES)": "COC1OC(C)C(OC2OC(C)C(O)C(OC3OC(C)C(OC4OC(C)C(O)C(OC5OC(C)C(OC6OC(C)C(O)C(OC7OC(C)C(OC8OC(C)C(O)C(OC9OC(C)C(OC%10OC(C)C(O)C(OC%11OC(C)C(O)C(OS(=O)(=O)O)C%11OS(=O)(=O)O)C%10OS(=O)(=O)O)C(OS(=O)(=O)O)C9OS(=O)(=O)O)C8OS(=O)(=O)O)C(OS(=O)(=O)O)C7OS(=O)(=O)O)C6OS(=O)(=O)O)C(OS(=O)(=O)O)C5OS(=O)(=O)O)C4OS(=O)(=O)O)C(OS(=O)(=O)O)C3OS(=O)(=O)O)C2OS(=O)(=O)O)C(OS(=O)(=O)O)C1OS(=O)(=O)O (centres unmarked)", "system": "human plasma", "setting": "128 µg/mL", "scale": "reference: control", "measurement": "prothrombin time prolongation", "result": "1 fold"}
{"Structure (SMILES)": "COC1CN([C@H]2CC[C@H]([C@@]3(C)Oc4c(Cl)cc(C(=O)NCc5c(SC)cc(C)[nH]c5=O)c(C)c4O3)CC2)C1", "test": "RNA-seq, refers to: TBC1D12", "system": "human, whole blood", "setting": "dose not given, 24 h", "scale": "reference: pretreatment baseline", "measurement": "log2 fold change", "result": 1.22}
